Assay results of several laboratories.
Numbered parts are unrelated; each lists some results of a single study.
Sequence of UniProt Q8WXR4 (whole entry, looked up): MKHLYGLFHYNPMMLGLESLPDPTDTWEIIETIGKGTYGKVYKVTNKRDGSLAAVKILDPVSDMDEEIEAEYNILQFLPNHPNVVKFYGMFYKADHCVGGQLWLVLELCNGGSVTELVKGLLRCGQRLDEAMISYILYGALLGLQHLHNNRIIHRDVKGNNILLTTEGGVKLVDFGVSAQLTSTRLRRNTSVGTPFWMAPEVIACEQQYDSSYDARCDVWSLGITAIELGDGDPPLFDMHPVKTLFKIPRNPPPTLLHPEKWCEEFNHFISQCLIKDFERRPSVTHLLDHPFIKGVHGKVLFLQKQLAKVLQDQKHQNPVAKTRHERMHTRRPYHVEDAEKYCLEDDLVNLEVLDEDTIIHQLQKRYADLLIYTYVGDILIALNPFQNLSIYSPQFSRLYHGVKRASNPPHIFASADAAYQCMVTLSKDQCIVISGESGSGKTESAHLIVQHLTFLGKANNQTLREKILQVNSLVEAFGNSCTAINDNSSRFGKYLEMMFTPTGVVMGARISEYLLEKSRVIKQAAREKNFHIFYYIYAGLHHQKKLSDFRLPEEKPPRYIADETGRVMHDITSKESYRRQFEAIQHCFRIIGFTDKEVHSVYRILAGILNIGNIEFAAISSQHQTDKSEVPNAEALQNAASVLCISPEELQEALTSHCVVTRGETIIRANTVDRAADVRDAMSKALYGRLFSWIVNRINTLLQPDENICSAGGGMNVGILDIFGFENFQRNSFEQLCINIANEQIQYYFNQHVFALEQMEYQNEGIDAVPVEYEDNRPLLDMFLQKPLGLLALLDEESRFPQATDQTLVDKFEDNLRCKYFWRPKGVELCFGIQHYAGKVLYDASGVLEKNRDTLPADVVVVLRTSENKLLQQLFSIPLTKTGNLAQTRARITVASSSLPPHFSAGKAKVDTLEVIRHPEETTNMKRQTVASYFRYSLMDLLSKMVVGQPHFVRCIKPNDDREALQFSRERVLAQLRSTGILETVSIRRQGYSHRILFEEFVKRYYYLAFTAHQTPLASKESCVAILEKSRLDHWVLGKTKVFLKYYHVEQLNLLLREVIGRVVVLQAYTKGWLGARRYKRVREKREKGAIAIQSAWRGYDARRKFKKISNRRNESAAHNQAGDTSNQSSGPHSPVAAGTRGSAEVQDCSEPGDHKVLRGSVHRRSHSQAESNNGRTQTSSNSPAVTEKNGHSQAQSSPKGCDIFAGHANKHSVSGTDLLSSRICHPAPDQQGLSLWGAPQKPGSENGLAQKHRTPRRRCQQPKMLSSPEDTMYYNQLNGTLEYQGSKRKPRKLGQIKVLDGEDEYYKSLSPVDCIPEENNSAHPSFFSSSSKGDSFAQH
Sequence of UniProt P08581 (whole entry, looked up): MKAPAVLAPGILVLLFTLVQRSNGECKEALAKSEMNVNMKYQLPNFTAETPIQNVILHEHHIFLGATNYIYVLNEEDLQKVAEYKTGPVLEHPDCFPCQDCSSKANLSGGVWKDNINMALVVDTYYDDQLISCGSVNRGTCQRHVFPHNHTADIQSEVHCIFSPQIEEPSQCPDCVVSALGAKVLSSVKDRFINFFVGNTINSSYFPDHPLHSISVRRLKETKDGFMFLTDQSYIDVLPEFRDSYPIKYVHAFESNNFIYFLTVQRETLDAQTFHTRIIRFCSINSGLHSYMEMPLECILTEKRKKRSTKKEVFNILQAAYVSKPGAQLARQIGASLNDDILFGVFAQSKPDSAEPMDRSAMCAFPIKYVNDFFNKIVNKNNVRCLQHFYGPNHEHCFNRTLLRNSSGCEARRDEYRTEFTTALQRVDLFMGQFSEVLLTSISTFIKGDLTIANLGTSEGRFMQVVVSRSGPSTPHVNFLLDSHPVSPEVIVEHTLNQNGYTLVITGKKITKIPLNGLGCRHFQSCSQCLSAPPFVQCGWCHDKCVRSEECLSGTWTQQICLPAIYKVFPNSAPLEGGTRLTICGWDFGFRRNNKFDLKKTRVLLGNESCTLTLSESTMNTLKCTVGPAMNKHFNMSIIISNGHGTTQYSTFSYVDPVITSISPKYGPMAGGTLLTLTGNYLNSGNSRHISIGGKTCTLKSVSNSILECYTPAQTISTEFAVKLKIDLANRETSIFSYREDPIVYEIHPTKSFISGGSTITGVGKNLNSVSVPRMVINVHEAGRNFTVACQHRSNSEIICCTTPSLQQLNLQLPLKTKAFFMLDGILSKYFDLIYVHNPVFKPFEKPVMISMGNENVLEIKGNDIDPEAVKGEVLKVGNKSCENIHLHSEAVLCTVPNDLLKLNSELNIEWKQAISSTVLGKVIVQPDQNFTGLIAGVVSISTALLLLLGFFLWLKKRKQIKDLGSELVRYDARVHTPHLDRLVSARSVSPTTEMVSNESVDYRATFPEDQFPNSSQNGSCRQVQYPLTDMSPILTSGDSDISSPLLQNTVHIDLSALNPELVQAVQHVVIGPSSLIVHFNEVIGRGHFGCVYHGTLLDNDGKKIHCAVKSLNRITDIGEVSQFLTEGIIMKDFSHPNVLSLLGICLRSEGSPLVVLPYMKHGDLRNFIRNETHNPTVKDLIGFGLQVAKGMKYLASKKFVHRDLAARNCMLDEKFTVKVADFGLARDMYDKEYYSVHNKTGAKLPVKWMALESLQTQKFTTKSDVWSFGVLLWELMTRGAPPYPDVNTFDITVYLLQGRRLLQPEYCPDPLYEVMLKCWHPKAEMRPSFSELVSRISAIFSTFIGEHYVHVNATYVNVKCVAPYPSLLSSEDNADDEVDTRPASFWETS
Sequence of UniProt Q9UKE5 (whole entry, looked up): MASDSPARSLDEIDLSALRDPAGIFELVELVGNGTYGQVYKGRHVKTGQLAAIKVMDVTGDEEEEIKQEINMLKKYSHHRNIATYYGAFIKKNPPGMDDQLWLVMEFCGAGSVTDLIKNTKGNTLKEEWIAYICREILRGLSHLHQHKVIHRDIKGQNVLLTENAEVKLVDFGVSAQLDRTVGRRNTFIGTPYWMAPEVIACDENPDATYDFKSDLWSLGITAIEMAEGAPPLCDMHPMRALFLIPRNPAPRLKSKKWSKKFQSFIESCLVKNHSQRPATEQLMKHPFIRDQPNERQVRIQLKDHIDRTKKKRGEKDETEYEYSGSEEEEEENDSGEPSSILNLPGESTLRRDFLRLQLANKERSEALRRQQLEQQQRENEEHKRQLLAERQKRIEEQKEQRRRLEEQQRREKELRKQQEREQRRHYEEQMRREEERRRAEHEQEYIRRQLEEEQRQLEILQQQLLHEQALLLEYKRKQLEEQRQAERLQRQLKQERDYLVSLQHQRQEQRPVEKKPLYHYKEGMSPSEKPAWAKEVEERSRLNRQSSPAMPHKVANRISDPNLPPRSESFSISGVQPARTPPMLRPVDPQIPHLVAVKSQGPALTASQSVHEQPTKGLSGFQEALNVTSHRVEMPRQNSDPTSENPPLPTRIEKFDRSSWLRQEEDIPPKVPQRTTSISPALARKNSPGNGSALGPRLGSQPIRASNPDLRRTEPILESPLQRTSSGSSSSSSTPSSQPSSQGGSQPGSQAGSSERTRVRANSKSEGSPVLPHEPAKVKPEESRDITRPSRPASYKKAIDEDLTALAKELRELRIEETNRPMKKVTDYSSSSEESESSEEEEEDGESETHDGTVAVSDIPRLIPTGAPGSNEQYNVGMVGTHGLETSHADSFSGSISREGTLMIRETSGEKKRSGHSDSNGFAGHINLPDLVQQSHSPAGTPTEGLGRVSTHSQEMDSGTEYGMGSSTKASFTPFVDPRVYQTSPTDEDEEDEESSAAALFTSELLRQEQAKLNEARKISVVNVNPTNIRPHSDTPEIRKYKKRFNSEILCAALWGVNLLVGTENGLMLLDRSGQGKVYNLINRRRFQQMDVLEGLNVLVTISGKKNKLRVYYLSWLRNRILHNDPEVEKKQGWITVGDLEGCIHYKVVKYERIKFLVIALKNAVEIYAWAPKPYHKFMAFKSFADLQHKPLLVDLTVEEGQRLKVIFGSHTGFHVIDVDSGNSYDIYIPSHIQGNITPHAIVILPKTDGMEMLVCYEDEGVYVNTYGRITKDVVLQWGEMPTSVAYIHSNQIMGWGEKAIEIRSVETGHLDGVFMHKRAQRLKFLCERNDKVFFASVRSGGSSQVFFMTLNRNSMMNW
Sequence of UniProt Q9HBH9 (whole entry, looked up): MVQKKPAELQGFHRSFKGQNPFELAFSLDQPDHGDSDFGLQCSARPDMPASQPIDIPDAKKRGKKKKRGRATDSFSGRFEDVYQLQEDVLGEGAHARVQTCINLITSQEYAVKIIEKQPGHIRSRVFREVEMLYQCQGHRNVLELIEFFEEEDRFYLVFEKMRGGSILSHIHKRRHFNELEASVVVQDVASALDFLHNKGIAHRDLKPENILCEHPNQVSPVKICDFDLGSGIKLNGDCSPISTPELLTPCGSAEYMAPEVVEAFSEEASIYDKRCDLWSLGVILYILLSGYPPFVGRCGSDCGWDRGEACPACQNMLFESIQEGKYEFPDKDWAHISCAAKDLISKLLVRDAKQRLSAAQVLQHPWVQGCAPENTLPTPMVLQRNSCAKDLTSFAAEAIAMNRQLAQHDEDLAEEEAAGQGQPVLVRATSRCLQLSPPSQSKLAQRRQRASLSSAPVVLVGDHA
Sequence of UniProt P61075 (whole entry, looked up): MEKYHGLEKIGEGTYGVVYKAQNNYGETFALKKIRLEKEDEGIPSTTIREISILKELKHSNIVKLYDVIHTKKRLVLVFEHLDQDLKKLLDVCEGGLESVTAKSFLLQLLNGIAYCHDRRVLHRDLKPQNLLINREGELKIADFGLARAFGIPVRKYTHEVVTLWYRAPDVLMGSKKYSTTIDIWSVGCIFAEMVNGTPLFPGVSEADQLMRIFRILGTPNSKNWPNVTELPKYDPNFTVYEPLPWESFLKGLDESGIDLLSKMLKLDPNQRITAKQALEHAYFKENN

Sample 1
Species: mouse
Sample: microsomes or S9
Concentration: 2 µM
Time: 0.5 h
Quantity: remaining compound
COCCn1cc(C(=O)NCc2nc3ccccc3[nH]2)c2ccccc2c1=O: 23.9%
COC(=O)C12CC(CCC(C)=O)C(=O)N1CCc1c2n(C(=O)OC(C)(C)C)c2ccccc12 (stereo not shown): 1.47%
CN1C[C@H](NC(=O)Nc2cccc3ccccc23)C[C@H]1CO: > 99%
O=S(=O)(Nc1ccc2[nH]ncc2c1)c1cc(Cl)c(Cl)cc1Cl: 98.3%

Sample 2
SMILES: Nc1c(C(=O)NCc2ccc(C(=O)NCCCC3CCCCC3)cc2)cnn1-c1ccccc1
Effect on: cell-free assay
Technique: competition with immobilised ligand
Concentration: 0.1 µM
Quantity: remaining binding
MKNK2 (Homo sapiens, UniProt Q9HBH9): 100%
TNIK (Homo sapiens, UniProt Q9UKE5): 100%
DYRK1A (Homo sapiens, UniProt Q13627): 100%
WEE2 (Homo sapiens, UniProt P0C1S8): 100%

Sample 3
SMILES: COc1ccc2[nH]c3c4[nH]c5ccc(OC)cc5c4c4c(c3c2c1)C(=O)NC4=O
Concentration: 1 µM
Quantity: remaining binding
CDK13 (Homo sapiens, UniProt Q14004); competitive binding panel, refers to: CDC2L5; baseline: vehicle: 100%
CDK9 (Homo sapiens, UniProt P50750); competitive binding panel; baseline: vehicle: 58%
ACVR1 (Homo sapiens, UniProt Q04771); competitive binding panel; baseline: vehicle: 77%
CRK2 (Plasmodium falciparum, UniProt P61075); competitive binding, scanMAX; Plasmodium falciparum PK5, 1000 nM: 82%

Sample 4
Structure (SMILES): Cn1cc(/C=C2\C(=O)Nc3ccc(S(N)(=O)=O)cc32)c2ccccc21
Effect on: enzyme activity
Mode: inhibitor
Concentration: 0.5 µM
Baseline: control
Quantity: remaining activity
MAPK14 (Homo sapiens, UniProt Q16539): 123%
Myosin-IIIb (MYO3B, Homo sapiens, UniProt Q8WXR4): 74.6%
MAP2K1 (Homo sapiens, UniProt Q02750): 63.6%
MINK1 (Homo sapiens, UniProt Q8N4C8): 53.7%
MET (Homo sapiens, UniProt P08581): 84.2%
TLK2 (Homo sapiens, UniProt Q86UE8): 63.2%
MAPK1 (Homo sapiens, UniProt P28482): 98.2%
CDC42BPB (Homo sapiens, UniProt Q9Y5S2): 114%
CLK3 (Homo sapiens, UniProt P49761): 81.4%
DCLK2 (Homo sapiens, UniProt Q8N568): 93.2%
ROCK1 (Homo sapiens, UniProt Q13464): 63.8%
CAMK4 (Homo sapiens, UniProt Q16566): 96.4%
DDR2 (Homo sapiens, UniProt Q16832): 100%
CLK4 (Homo sapiens, UniProt Q9HAZ1): 42.6%

Sample 5
Cell line: HaCaT
Concentration: 100 µM
Time: 18 h
Quantity: viability
COc1nc(C)nc(Cl)c1N=C1NCCN1: 119%
Nc1ccc(S(=O)(=O)Nc2ccc(Cl)nn2)cc1: 74.3%
Nc1cccc2c1CN(C1CCC(=O)NC1=O)C2=O (stereo not shown): 99.8%
CN(N=O)C(=O)N[C@@H](C=O)[C@@H](O)[C@H](O)[C@H](O)CO: 108%
CCCCCCCCCCC[C@@H](C[C@@H]1OC(=O)[C@H]1CCCCCC)OC(=O)[C@H](CC(C)C)NC=O: 57%

A few entries again (sample 4):
CDC42BPB (Homo sapiens, UniProt Q9Y5S2): 114%
CLK3 (Homo sapiens, UniProt P49761): 81.4%
MAPK1 (Homo sapiens, UniProt P28482): 98.2%
DDR2 (Homo sapiens, UniProt Q16832): 100%
